Results collected from several papers.
Protocols differ between the studies behind these lines. “And” joins repeats or separate records; there may be more than shown. Numbers after ± are the reported error.
STING1 H232R: Stimulator of interferon genes protein (STING1, Homo sapiens, UniProt Q86WV6, H232R)
MAPK8: Mitogen-activated protein kinase 8 (MAPK8, Homo sapiens, UniProt P45983)

`N=C(N)NCCC[C@@H]1NC(=O)[C@H](Cc2ccccc2)NC(=O)CSC[C@@H](C(=O)N[C@@H](CC(=O)O)C(N)=O)NC(=O)[C@H](CCCNC(=N)N)NC(=O)[C@H](Cc2c[nH]c3ccccc23)NC(=O)[C@H](Cc2ccc(O)cc2)NC(=O)[C@H](Cc2ccc(O)cc2)NC(=O)[C@H](Cc2ccccc2)NC1=O` gave a ΔTm of 8.36 °C (STING1 H232R; thermal stability, DSF; 50 µM).
For `N=C(N)NCCS(=O)(=O)O`, “normalised MST signal” read 0.00605 (Sodium- and chloride-dependent taurine transporter (SLC6A6, Homo sapiens, UniProt P31641, G62A); binding, microscale thermophoresis; 15.6 µM, room temperature, together with: 50 nM labelled protein; higher = more binding).
Under “activity vs control”, `CNC(=O)C[C@H](Cc1ccc(C#N)cc1)NC(=O)c1cc(-c2ccc(CN[C@H](C)c3ccc(C)cc3)o2)ccc1Cl` is recorded as 97% (Serine/threonine-protein kinase VRK1 (VRK1, Homo sapiens, UniProt Q99986); enzyme activity, inhibitor; 1 µM).
`COC(=O)[C@]1(Cc2ccccc2)C=C(C(=O)OC(C)(C)C)C(=O)CC1` has a fraction bound of 0.0328 (MAPK8; D-peptide binding, inhibitor, FP peptide displacement; 31.25 µM; lower is stronger displacement).
`CC(/C=C/C(=O)NO)=C\[C@@H](C)C(=O)c1ccc(N(C)C)cc1` gave a binding stoichiometry of 0.9 (Histone deacetylase 8 (HDAC8, Homo sapiens, UniProt Q9BY41); ITC; triethanolamine buffer; concentration not given, pH 7.5).
With `C[C@@H]1C[C@H](Nc2ccccc2)c2cc(F)ccc2N1C(=O)c1ccc(Br)cc1` the pIC50 Z-score was -0.07 (Ecdysone receptor (Aedes albopictus, UniProt Q9U3Y4); ligand binding, inhibitor; intact cells; together with: [3H]ponasterone A; direction not given).
`C[N+]1(C)CCCC1` gave a kon of 1.23e+07 M⁻¹ s⁻¹ (Chrnd/Chrna1/Chrne (Mus musculus, UniProt P02716+P04756+P20782, G173P/S470W); binding, single-channel kinetics; cell-attached patch; AChR wild type, P chain side).
`CCCCCC(O)/C=C/C=O` (centres unmarked) — result for “isoTOP-ABPP competition ratio”: 1.6 (Elongation factor 2, Cys41 (EEF2, Homo sapiens, UniProt P13639); competitive isoTOP-ABPP; Ramos soluble proteome; 100 µM, 60 min, together with: iodoacetamide probe; relative to: DMSO over compound-treated, higher = stronger cysteine blockade).
The specific binding of `O=C1c2sc(-c3ccc(N4CCC(F)C4)nc3F)nc2CCN1c1cccnc1` (centres unmarked) is reported as 0.207 nM and 0.194 nM (TAR DNA-binding protein 43, aggregated (TARDBP, Homo sapiens, UniProt Q13148); radioligand binding; human, FTLD-TDP type B extract; together with: radioligand 1.8 nM).
The fraction bound of `COC(=O)C1(C)C=C(C(=O)OC(C)(C)C)C(=O)CC1` (centres unmarked) is reported as 0.0913 (MAPK8; D-peptide binding, inhibitor, FP peptide displacement; 1000 µM; lower is stronger displacement).
`Clc1ccc(C(Cn2cnc3ccccc32)OCc2ccc3ccccc3c2)c(Cl)c1` (centres unmarked) — result for “activity vs control”: 106% (Serine/threonine-protein kinase ULK1 (ULK1, Homo sapiens, UniProt O75385); enzyme activity, inhibitor, ADP detection; 0.1 µM).
`O=C(NC[C@@H](Cc1ccc(F)cc1)N1CCC(O)(C(F)(F)F)CC1)C1(c2ccc(Cl)cc2)CCCC1` — result for activity: “inactive” (Transient receptor potential cation channel subfamily A member 1 (TRPA1, Homo sapiens, UniProt O75762, V875G); concentration not given).
`CC(C)[C@@H]1NC(=O)[C@H](Cc2ccccc2)NC(=O)CSC[C@@H](C(N)=O)NC(=O)[C@H](CCC(=O)O)NC(=O)[C@H](CO)NC(=O)[C@H](Cc2c[nH]c3cccc(Cl)c23)NC(=O)[C@H](C2CCCCC2)NC(=O)[C@H](C(C)C)NC(=O)[C@H](Cc2ccc(O)cc2)NC(=O)[C@H](CC(=O)O)NC(=O)[C@H](Cc2c[nH]c3ccccc23)NC(=O)[C@H](Cc2ccc(N)nc2)NC(=O)[C@H](Cc2c[nH]c3ccc(Cl)cc23)NC(=O)[C@H](CCC(=O)O)NC1=O` has a remaining activity of 82.2% (Interleukin-1 receptor-like 2 (IL1RL2, Homo sapiens, UniProt Q9HB29); reporter gene (SEAP), inhibitor, HEK-Blue IL-36R reporter; HEK-Blue IL-36R cells; 0.015 µM, 6 h, together with: IL-36β 0.01 ng/mL).
`CC(C=CC=C(C)C=CC1=C(C)CCCC1(C)C)=CC=O` — result for “Pearson correlation coefficient”: 0.71 (Rhodopsin (RHO, Homo sapiens, UniProt P08100, T17M); ER retention, immunostaining co-localization, refers to: opsin with calnexin; COS-7 transfected T17M; 1.00 µM).
Under “isoTOP-ABPP competition ratio”, `CCCCCC=CC=C1C(=O)C=CC1CC=CCCCC(=O)O` (centres unmarked) is recorded as 2.3 (Small glutamine-rich tetratricopeptide repeat-containing protein alpha (Homo sapiens, UniProt O43765); competitive isoTOP-ABPP, refers to: SGTA cysteine peptide; Ramos soluble proteome; 100 µM, together with: iodoacetamide probe; relative to: DMSO over compound-treated, higher = stronger cysteine blockade).
For `CN(C)c1ccc(-n2cc(COC(=O)[C@]3(C)C=C(C(=O)OC(C)(C)C)C(=O)CC3)nn2)cc1`, the fraction bound was 0.201 (MAPK8; D-peptide binding, inhibitor, FP peptide displacement; 50 µM; lower is stronger displacement).
`CCCCCCCCCCCCCCCC(=O)OCC(CSC[C@H](N)C(=O)N[C@@H](CO)C(=O)N[C@@H](CCCCN)C(=O)N[C@@H](CCCCN)C(=O)N[C@@H](CCCCN)C(=O)N[C@@H](CCCCN)C(=O)NCCCCCC(=O)N[C@@H](CCCCN)C(=O)N[C@@H](CC(C)C)C(=O)N[C@H](C(=O)N[C@@H](Cc1ccccc1)C(=O)N[C@@H](Cc1ccccc1)C(=O)N[C@@H](Cc1ccc2ccccc2c1)C(=O)O)C(C)C)OC(=O)CCCCCCCCCCCCCCC` (some centres unmarked) has a fibril diameter of 52.5 nm (Amyloid-beta precursor protein, fibrillar amyloid-beta (APP, Homo sapiens, UniProt P05067); TEM; 2.0 eq, 3 h, fibril 5, together with: APP 20 µM).
For `CC[C@H](C)[C@@H]1NC(=O)[C@H](Cc2ccc(O)cc2)NC(=O)[C@H](Cc2ccccc2)NC(=O)[C@H](Cc2ccccc2)NC(=O)[C@H](Cc2ccccc2)NC(=O)CSC[C@@H](C(=O)N[C@@H](Cc2c[nH]cn2)C(N)=O)NC(=O)[C@H](CC(N)=O)NC(=O)[C@H](Cc2c[nH]c3ccccc23)NC1=O`, the ΔTm was 7.07 °C (STING1 H232R; thermal stability, DSF; 50 µM).
`CCCCCCCC/C=C\CCCCCCCC(=O)OCC(O)COP(=O)(O)O` (centres unmarked) has a fold change of 0.694 and 0.77 and 0.719 and 0.716 and 0.777 and 0.723 (Lysophosphatidic acid receptor 1 (LPAR1, Homo sapiens, UniProt Q92633); G-protein dissociation, agonist, NanoBiT; HEK-293T; 100 nM, wild-type receptor; relative to: baseline luminescence).
Under “HAB1 phosphatase activity”, `O=[N+]([O-])c1cc(Br)cc([N+](=O)[O-])c1NS(=O)(=O)c1ccc(Br)cc1` is recorded as 0.103 a.u. and 0.101 a.u. and 0.102 a.u. (PYL10, with HAB1 (Arabidopsis thaliana, UniProt Q8H1R0); antagonist; 200 µM, together with: ABA 5 µM; higher = more HAB1 activity).
For `CCC1(CC)C(=O)N(c2ccc(CC(=O)O)cc2)C1=O.O=C(O)C(F)(F)F`, “activity vs control” read 23% (Dipeptidyl peptidase 8 (Homo sapiens, UniProt Q6V1X1); enzyme activity, inhibitor; 5 µM).
`COC(=O)CN1CCCc2cc3cc(C(=O)NC(Cc4ccc(C)cc4)C(=O)NCC=CS(=O)(=O)c4ccccc4)c(=O)oc3cc21` (centres unmarked) gave a kinact/Ki of 1510 M⁻¹ s⁻¹ (Rhodesain (rhodesain, Trypanosoma brucei rhodesiense, UniProt Q95PM0); inhibitor; pH 5.5, 37 °C, together with: Z-Phe-Arg-AMC).
`Cc1cn(CC(=O)N(CC(=O)N[C@H]2CCC[C@@H]2N(CC(=O)N[C@H]2COC[C@@H]2N(CC(=O)N[C@H]2COC[C@@H]2N(CC(=O)N[C@H]2COC[C@@H]2N(CC(=O)NCCOCCOCC(N)=O)C(=O)Cn2cnc3c(N)ncnc32)C(=O)Cn2cc(C)c(=O)[nH]c2=O)C(=O)Cn2cnc3c(N)ncnc32)C(=O)Cn2cnc3c(=O)[nH]c(N)nc32)[C@H]2CCC[C@@H]2NC(=O)CN(C(=O)Cn2cnc3c(=O)[nH]c(N)nc32)[C@H]2CCC[C@@H]2NC(=O)CN(C(=O)Cn2cc(C)c(=O)[nH]c2=O)[C@H]2COC[C@@H]2NC(=O)CN(C(=O)Cn2cnc3c(N)ncnc32)[C@H]2COC[C@@H]2NC(=O)CN(C(=O)Cn2cnc3c(=O)[nH]c(N)nc32)[C@H]2COC[C@@H]2N)c(=O)[nH]c1=O` has a ΔH of -70.7 ± 2 kcal/mol (complementary RNA; duplex formation, UV melting curve fit; PBS; 1 µM).
`O=C(O)P(=O)(O)O` gave a Hill slope of 0.95 (DNA polymerase catalytic subunit (Human cytomegalovirus, UniProt P08546); enzyme activity, inhibitor).
The inhibition (PI10) of `O=C(O)c1cccc(-c2ccccc2O[C@@H]2O[C@H](CO)[C@H](O)[C@H](O)[C@H]2O)c1` is reported as 75.1 ± 1% (Adhesin FmlH, lectin domain (Escherichia coli, UniProt Q1RBS0); binding to desialylated BSM, competition ELISA; UPEC UTI89; 10 µM).
`COc1cc(C2C(NC(=O)c3ccc(NC(=O)OC(C)(C)C)cc3)(C(=O)O)C(c3ccc(OC(=O)c4cccs4)c(OC)c3)C2(NC(=O)c2ccc(NC(=O)OC(C)(C)C)cc2)C(=O)O)ccc1OC(=O)c1cccs1` (centres unmarked) gave an Emax of 43.7 ± 4.7% (Glucagon-like peptide 1 receptor (GLP1R, Homo sapiens, UniProt P43220, F230A); cAMP accumulation, agonist; receptor mutant; relative to: wild type).
With `Cc1cc(NC(=O)[C@H](O)c2cc(F)cc(F)c2)ccc1-c1cnc(N)c(C(=O)NC(C)C)c1` the remaining binding was 90% (Serine/threonine-protein kinase RIO2 (RIOK2, Homo sapiens, UniProt Q9BVS4); binding, competition with immobilised ligand; 10 µM).
`CC(C)Oc1cc(Cl)ccc1CNc1cc(-c2ccccc2)nc2ncnn12` gave a cAMP luminescence of 10800 a.u. and 8220 a.u. and 8180 a.u. and 7820 a.u. and 4430 a.u. (G-protein coupled receptor 3 (GPR3, Homo sapiens, UniProt P46089); cAMP reporter; human cells; 1 µM; higher is more cAMP).
With `Cn1cc(-c2cc(N3CCCCS3(=O)=O)ccc2N[C@H]2CC[C@H](C)CC2)c2cc[nH]c2c1=O` (stereo in doubt) the remaining binding was 0.5% (Bromodomain-containing protein 2, BD1 (BRD2, Homo sapiens, UniProt P25440); binding, competition with immobilised ligand; 1 µM).

A few entries again:
`COc1cc(C2C(NC(=O)c3ccc(NC(=O)OC(C)(C)C)cc3)(C(=O)O)C(c3ccc(OC(=O)c4cccs4)c(OC)c3)C2(NC(=O)c2ccc(NC(=O)OC(C)(C)C)cc2)C(=O)O)ccc1OC(=O)c1cccs1` (centres unmarked) gave an Emax of 43.7 ± 4.7% (Glucagon-like peptide 1 receptor (GLP1R, Homo sapiens, UniProt P43220, F230A); cAMP accumulation, agonist; receptor mutant; relative to: wild type).
`O=C(O)P(=O)(O)O` gave a Hill slope of 0.95 (DNA polymerase catalytic subunit (Human cytomegalovirus, UniProt P08546); enzyme activity, inhibitor).
